Results collected from several papers.
Every numbered part comes from another study and shows a few of its results, in no order. Several values in a cell are separate wells, animals, samples, runs or records.
Sequence of UniProt P35626 (whole entry, looked up): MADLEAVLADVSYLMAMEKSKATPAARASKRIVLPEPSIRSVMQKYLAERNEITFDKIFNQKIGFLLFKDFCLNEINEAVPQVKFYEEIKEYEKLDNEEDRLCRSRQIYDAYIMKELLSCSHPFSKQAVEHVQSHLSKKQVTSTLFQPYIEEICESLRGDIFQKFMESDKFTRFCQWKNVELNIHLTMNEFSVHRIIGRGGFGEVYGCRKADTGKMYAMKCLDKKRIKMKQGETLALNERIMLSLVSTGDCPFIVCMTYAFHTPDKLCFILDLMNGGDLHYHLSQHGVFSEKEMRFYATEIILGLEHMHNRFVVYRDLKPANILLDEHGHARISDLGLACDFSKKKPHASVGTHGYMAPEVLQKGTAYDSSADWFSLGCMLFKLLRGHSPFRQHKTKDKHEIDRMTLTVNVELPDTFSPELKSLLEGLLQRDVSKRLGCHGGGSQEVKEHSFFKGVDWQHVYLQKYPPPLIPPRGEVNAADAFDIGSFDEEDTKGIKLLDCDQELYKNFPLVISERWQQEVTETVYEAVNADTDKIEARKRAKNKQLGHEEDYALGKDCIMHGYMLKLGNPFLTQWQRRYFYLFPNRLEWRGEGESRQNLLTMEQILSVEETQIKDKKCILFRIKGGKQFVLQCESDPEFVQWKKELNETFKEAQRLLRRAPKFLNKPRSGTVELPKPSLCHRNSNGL
Sequence of UniProt Q14164 (whole entry, looked up): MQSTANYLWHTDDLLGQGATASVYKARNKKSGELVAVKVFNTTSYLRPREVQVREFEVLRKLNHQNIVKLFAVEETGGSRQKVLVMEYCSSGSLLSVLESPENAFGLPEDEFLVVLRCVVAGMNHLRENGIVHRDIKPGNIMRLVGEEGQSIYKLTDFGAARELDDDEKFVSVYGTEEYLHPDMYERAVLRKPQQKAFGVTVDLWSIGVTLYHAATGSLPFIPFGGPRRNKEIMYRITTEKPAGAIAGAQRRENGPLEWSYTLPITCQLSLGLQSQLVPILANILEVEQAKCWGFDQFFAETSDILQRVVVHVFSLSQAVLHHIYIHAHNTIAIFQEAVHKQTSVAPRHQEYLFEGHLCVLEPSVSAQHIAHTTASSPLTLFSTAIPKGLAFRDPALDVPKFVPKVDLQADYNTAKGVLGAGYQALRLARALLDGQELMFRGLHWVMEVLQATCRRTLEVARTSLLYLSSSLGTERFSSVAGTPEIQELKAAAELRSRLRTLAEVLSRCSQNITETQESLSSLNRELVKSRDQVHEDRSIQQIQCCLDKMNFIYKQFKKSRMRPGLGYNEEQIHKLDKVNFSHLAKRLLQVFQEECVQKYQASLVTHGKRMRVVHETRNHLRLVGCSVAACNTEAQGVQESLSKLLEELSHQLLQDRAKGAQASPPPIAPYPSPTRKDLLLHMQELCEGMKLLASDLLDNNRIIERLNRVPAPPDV
Sequence of UniProt Q9UIK4 (whole entry, looked up): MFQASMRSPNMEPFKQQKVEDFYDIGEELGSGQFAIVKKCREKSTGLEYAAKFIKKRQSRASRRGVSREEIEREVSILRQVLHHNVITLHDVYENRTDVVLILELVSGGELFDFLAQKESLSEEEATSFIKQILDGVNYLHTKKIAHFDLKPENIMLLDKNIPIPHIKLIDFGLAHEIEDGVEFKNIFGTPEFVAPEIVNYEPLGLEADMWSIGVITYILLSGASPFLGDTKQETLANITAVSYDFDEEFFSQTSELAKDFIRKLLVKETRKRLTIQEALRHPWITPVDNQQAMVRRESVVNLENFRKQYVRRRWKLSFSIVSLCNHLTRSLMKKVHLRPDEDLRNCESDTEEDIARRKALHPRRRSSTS
Sequence of UniProt O14920 (whole entry, looked up): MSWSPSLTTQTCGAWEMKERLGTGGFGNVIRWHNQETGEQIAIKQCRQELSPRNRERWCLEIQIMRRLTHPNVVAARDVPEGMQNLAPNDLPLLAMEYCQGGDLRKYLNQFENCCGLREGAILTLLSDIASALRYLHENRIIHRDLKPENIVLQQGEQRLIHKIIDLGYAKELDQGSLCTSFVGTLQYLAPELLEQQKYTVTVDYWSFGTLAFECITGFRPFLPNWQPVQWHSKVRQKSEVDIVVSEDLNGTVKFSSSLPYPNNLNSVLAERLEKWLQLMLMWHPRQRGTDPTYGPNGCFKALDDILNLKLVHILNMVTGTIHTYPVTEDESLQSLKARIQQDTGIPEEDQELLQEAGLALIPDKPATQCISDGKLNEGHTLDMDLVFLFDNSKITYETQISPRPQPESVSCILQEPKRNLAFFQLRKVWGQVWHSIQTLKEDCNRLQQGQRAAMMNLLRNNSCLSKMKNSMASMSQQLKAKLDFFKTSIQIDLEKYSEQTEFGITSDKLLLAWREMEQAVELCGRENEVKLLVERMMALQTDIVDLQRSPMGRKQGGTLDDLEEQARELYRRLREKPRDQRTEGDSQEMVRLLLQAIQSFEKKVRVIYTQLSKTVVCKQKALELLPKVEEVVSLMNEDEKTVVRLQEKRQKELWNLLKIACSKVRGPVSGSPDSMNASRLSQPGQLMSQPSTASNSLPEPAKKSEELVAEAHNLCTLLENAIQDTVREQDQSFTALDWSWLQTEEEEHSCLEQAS
Sequence of UniProt Q96RR4 (whole entry, looked up): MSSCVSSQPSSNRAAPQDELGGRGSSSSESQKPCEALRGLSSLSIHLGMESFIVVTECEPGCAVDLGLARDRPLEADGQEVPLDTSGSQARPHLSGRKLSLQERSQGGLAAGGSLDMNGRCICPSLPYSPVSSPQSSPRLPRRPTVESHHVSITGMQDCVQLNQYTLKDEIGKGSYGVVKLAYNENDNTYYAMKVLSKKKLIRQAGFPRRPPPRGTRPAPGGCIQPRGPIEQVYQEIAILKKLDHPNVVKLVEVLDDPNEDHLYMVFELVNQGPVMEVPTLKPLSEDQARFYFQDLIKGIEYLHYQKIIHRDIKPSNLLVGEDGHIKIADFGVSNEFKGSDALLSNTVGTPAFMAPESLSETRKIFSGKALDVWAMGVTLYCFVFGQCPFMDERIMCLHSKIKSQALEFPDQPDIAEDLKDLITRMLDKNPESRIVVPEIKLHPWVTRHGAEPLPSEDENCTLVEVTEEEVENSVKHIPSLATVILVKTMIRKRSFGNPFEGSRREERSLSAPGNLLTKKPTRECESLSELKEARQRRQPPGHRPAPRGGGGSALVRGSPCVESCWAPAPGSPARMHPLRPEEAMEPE
Sequence of UniProt P62344 (whole entry, looked up): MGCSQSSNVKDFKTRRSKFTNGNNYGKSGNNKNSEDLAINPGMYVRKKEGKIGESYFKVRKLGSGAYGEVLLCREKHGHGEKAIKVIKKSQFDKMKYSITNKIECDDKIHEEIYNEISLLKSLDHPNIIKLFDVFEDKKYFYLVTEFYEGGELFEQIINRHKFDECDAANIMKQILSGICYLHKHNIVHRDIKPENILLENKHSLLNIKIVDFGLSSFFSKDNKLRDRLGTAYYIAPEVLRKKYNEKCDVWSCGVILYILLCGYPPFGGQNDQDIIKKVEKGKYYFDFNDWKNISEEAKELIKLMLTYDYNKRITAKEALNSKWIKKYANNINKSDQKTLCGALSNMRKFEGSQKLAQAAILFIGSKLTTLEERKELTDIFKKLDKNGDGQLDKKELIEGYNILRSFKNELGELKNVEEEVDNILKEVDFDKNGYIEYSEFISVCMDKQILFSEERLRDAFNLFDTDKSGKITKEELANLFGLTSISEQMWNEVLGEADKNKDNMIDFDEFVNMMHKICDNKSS
Sequence of UniProt P11802 (whole entry, looked up): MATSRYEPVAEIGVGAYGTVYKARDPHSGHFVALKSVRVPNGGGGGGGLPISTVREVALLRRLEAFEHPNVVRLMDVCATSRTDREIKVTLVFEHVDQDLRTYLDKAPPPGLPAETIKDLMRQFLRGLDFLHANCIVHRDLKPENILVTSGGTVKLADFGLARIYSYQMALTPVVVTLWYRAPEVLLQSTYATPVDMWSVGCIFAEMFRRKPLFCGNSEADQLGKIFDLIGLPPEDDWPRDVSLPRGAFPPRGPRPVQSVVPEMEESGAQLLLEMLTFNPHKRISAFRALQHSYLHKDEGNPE
Sequence of UniProt Q00535 (whole entry, looked up): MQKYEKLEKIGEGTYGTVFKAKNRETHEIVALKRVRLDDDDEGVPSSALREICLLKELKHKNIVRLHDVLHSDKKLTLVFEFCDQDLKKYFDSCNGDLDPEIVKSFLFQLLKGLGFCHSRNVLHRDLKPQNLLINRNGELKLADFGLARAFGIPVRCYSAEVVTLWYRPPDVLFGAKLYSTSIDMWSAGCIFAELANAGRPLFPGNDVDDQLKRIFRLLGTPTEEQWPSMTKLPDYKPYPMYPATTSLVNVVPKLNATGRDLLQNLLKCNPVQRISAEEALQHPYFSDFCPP

Study 1
Host: human
Medium: microsomes or S9
Concentration: 2 µM
Time: 0.5 h
Compound	remaining compound
CNNC(=O)c1cc(Cl)cc(C)c1NC(=O)c1cc(Br)nn1-c1ncccc1Cl	48.8%
CSc1nc2ccccc2c(=O)n1-c1ccccc1	49.6%
COC(=O)C1(c2ccccc2)CCN(C(=O)CCn2cncn2)CC1	75.7%

Study 2
Observed: AlphaScreen signal
Method: AlphaScreen counter screen
Medium: His6 peptide without bromodomain
Concentration: 50 µM
Notes: assay interference check
SMILES	inhibition [%]
O=C1Nc2ccccc2C1=Cc1c[nH]cn1	16.4
CCn1cnc2c(Nc3cccc(Cl)c3)nc(N[C@@H]3CCCC[C@@H]3N)nc21	41
C[C@@H]1C[C@H](C)C[C@H](C)[C@@H](O)CC(=O)O[C@H]([C@@H]2CCC[C@H]2C(=O)O)C/C=C/C=C(/C#N)[C@H](O)[C@@H](C)C1	-4.25
CN1C(=O)NC(=O)C(=CNc2ccc(Cl)cc2)C1=O	6.55
COc1ccc(NC=C2C(=O)NC(=O)N(C)C2=O)cc1	13.2
Cc1cccc(N2C(=O)NC(=O)C(=CNc3ccc(Cl)cc3)C2=O)c1	6.05
COc1cccc(N2C(=O)NC(=O)C(=CNc3cccc(Cl)c3)C2=O)c1	9.35

Study 3
Target: Calcium/calmodulin-dependent protein kinase type II subunit alpha (CAMK2A, Homo sapiens, UniProt Q9UQM7)
Sequence of UniProt Q9UQM7 (whole entry, looked up): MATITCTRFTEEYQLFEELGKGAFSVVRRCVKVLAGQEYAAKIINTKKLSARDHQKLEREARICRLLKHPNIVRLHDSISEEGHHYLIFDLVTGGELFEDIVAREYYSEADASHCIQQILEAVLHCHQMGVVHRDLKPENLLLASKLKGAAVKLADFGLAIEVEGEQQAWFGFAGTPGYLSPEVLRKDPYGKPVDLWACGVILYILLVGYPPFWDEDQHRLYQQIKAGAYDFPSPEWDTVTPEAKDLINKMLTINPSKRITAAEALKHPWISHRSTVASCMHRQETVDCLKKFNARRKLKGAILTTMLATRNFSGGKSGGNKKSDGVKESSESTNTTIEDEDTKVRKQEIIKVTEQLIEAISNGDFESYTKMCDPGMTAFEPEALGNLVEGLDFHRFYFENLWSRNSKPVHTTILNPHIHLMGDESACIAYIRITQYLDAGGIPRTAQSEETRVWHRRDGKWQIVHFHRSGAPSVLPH
Observed: enzyme activity
Action: inhibitor
Concentration: 10 µM
SMILES	inhibition [%]
CN(C)[C@@H]1C(=O)C(C(N)=O)=C(O)[C@@]2(O)C(=O)C3=C(O)c4c(O)cccc4[C@@](C)(O)[C@H]3C[C@@H]12	6
C[C@H]1CC[C@@H]2[C@@H](C)[C@H]3[C@H](C[C@H]4[C@@H]5CC=C6C[C@@H](O[C@@H]7O[C@H](CO)[C@H](O)[C@H](O[C@@H]8O[C@H](CO)[C@@H](O)[C@H](O)[C@H]8O)[C@H]7O[C@@H]7O[C@@H](C)[C@H](O)[C@@H](O)[C@H]7O)CC[C@]6(C)[C@H]5CC[C@]34C)N2C1	25
N[C@@H](Cn1oc(=O)[nH]c1=O)C(=O)O	-21

Study 4
SMILES: COc1ccc2c(c1)/C(=C/c1cnc[nH]1)C(=O)N2
Observed: enzyme activity
Action: inhibitor
Concentration: 0.5 µM
Reference: control
target	remaining activity
Mitogen-activated protein kinase 9 (MAPK9, Homo sapiens, UniProt P45984)	101%
Protein kinase C alpha type (PRKCA, Homo sapiens, UniProt P17252)	91.3%
Cyclin-dependent kinase 4, with cyclin D1 (CDK4, Homo sapiens, UniProt P11802)	33.7%
Tyrosine-protein kinase Lyn, isoform B (LYN, Homo sapiens, UniProt P07948)	98.3%
Serine/threonine-protein kinase 10 (STK10, Homo sapiens, UniProt O94804)	67%
Calcium/calmodulin-dependent protein kinase kinase 2 (CAMKK2, Homo sapiens, UniProt Q96RR4)	89.5%
STE20/SPS1-related proline-alanine-rich protein kinase (STK39, Homo sapiens, UniProt Q9UEW8)	86.1%
Serine/threonine-protein kinase STK11 (STK11, Homo sapiens, UniProt Q15831)	51.7%
Death-associated protein kinase 2 (DAPK2, Homo sapiens, UniProt Q9UIK4)	97.3%
TGF-beta receptor type-2 (TGFBR2, Homo sapiens, UniProt P37173)	107%
TGF-beta receptor type-1 (TGFBR1, Homo sapiens, UniProt P36897)	98.1%
cAMP-dependent protein kinase catalytic subunit alpha (PRKACA, Homo sapiens, UniProt P17612)	99.9%
G protein-coupled receptor kinase 3 (GRK3, Homo sapiens, UniProt P35626)	101%
Inhibitor of nuclear factor kappa-B kinase subunit epsilon (IKBKE, Homo sapiens, UniProt Q14164)	92.5%
cGMP-dependent protein kinase 1, isoform beta (PRKG1, Homo sapiens, UniProt Q13976)	91.7%
Cyclin-dependent kinase 5, with p25 (CDK5, Homo sapiens, UniProt Q00535)	4.52%
Calcium/calmodulin-dependent protein kinase type II subunit delta (CAMK2D, Homo sapiens, UniProt Q13557)	78.8%
Protein kinase C beta type, isoform beta-I (PRKCB, Homo sapiens, UniProt P05771)	112%
Inhibitor of nuclear factor kappa-B kinase subunit beta (IKBKB, Homo sapiens, UniProt O14920)	94.9%
Serine/threonine-protein kinase Chk2 (CHEK2, Homo sapiens, UniProt O96017)	77.9%
Mitogen-activated protein kinase kinase kinase 3 (MAP3K3, Homo sapiens, UniProt Q99759)	84.2%
Serine/threonine-protein kinase OSR1 (OXSR1, Homo sapiens, UniProt O95747)	97.3%
Death-associated protein kinase 1 (DAPK1, Homo sapiens, UniProt P53355)	105%

Study 5
Cell line: Huh-7
Concentration: 10 µM
Time: 24 h
SMILES	viability
CC(C)c1cccc(C(C)C)c1O	97.2%
C[C@@H]1O[C@@H](O[C@H]2C[C@@H](O)[C@]3(CO)[C@H]4[C@H](O)C[C@]5(C)[C@@H](C6=CC(=O)OC6)CC[C@]5(O)[C@@H]4CC[C@]3(O)C2)[C@H](O)[C@H](O)[C@H]1O	54.8%
COc1ccc(C(CN(C)C)C2(O)CCCCC2)cc1 (centres unmarked)	97.8%
C[C@]12CC[C@H]3[C@@H](CCC4=CC(=O)CC[C@@]43C)[C@@H]1CC[C@@H]2O	84.9%

Further values, each from its own experiment
SMILES	target or system	test	test system	conditions	how to read	quantity	value
CCc1ccccc1C(=O)Nc1n[nH]c2c(C)c(F)c(C3C(C#N)=C(C)N(C)C(C)=C3C#N)cc12	Calcium-dependent protein kinase 1 (CDPK1, Plasmodium falciparum, UniProt P62344)	cell-free assay, competition with immobilised ligand		1 µM		remaining binding	100%
CNC(=O)c1ccc(-c2cnn3ccc(C(=O)N(C)c4ccc(Cl)c(C(=O)OC)c4)cc23)cc1	Cryptosporidium parvum	time-kill assay, luminescence	nanoluciferase-expressing	0.081 µM, 0 h	reference: DMSO	remaining parasite growth	90.1% and 91.2% and 99.4% and 91.4% and 103% and 90.3% and 98% and 97.4%
COCCOc1nc(-c2ccc(Cl)nc2)nc2c1CN(C(=O)c1ncn3ccccc13)CC2	Cyclin-dependent kinase 2 homolog (CRK2, Plasmodium falciparum, UniProt P61075)	cell-free assay, competition with immobilised ligand		0.1 µM		remaining binding	100%
C=CC(=O)N1CCC([C@@H]2CCNc3c(C(N)=O)c(-c4ccc(Oc5ccccc5)cc4)nn32)CC1	Dual specificity tyrosine-phosphorylation-regulated kinase 1B (DYRK1B, Homo sapiens, UniProt Q9Y463)	cell-free assay		1 µM		inhibition	4%
O=C(NCc1ncc(C(F)(F)F)cc1Cl)c1ccc2c(c1)C1(CCS(=O)(=O)CC1)[C@@H](C1CC1)N2S(=O)(=O)c1ccc(F)cc1	Epidermal growth factor receptor (EGFR, Homo sapiens, UniProt P00533, A750P/del747-749)	cell-free assay, competition with immobilised ligand		1 µM		remaining binding	96%
N[C@H]1C[C@@H]1c1ccccc1	DNA polymerase theta, ATPase domain (POLQ, Homo sapiens, UniProt O75417)	inhibitor		77 µM		remaining activity	79.1%
Cc1cc(NC(=O)c2cccc(S(F)(F)(F)(F)F)c2)cc(-n2ccn3nc(-c4cccnc4)cc23)c1	sample F normal colon organoid	CellTiter-Glo		1 µM, 4 days	reference: DMSO	viability	104%

Repeated from above (study 2):
SMILES	inhibition [%]
O=C1Nc2ccccc2C1=Cc1c[nH]cn1	16.4
CCn1cnc2c(Nc3cccc(Cl)c3)nc(N[C@@H]3CCCC[C@@H]3N)nc21	41
C[C@@H]1C[C@H](C)C[C@H](C)[C@@H](O)CC(=O)O[C@H]([C@@H]2CCC[C@H]2C(=O)O)C/C=C/C=C(/C#N)[C@H](O)[C@@H](C)C1	-4.25
CN1C(=O)NC(=O)C(=CNc2ccc(Cl)cc2)C1=O	6.55
COc1ccc(NC=C2C(=O)NC(=O)N(C)C2=O)cc1	13.2
Cc1cccc(N2C(=O)NC(=O)C(=CNc3ccc(Cl)cc3)C2=O)c1	6.05
COc1cccc(N2C(=O)NC(=O)C(=CNc3cccc(Cl)c3)C2=O)c1	9.35
